Measured values collected from several papers.
Protocols differ between the studies behind these lines. ± marks the error that the study gave.
Sequence of UniProt P41765 (whole entry, looked up): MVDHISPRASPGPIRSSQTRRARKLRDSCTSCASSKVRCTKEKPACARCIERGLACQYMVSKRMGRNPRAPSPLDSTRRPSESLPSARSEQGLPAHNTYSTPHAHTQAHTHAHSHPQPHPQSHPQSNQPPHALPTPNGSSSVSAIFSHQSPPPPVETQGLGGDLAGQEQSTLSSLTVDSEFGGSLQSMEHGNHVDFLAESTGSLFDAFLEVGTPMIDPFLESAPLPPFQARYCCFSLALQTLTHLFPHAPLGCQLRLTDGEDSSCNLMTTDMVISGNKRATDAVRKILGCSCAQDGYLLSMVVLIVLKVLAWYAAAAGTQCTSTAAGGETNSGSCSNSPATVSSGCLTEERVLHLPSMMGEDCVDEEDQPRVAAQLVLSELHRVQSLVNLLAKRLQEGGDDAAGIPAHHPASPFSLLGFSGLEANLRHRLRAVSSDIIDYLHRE
Sequence of UniProt P09651 (whole entry, unmodified, looked up): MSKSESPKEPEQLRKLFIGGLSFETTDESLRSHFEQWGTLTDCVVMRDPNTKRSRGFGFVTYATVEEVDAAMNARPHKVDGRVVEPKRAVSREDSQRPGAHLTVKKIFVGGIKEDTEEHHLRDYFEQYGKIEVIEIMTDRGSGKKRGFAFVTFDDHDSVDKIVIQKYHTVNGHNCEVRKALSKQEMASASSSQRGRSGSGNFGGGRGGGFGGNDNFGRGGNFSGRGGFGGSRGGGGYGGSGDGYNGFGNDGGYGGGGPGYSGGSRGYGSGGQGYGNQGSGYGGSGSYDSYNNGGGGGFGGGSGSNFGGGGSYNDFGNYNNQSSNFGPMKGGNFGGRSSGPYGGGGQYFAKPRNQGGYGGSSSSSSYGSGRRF

CC(=O)NCCN(CC(=O)NCCN(CC(=O)NCCN(CC(=O)NCCC(N)=O)C(=O)C[C@@H](N)Cc1ccccc1)C(=O)C[C@@H](N)CCCNC(=N)N)C(=O)C[C@@H](N)CCCNC(=N)N
binding entropy term TΔS° (HIV-1 TAR RNA; concentration not given, 25 °C): -0.12 ± 0.263 kcal/mol

F[P-](F)(F)(F)(F)F.OC(Cn1cncn1)(Cn1cc(-[c-]2cccc2)nn1)c1ccc(F)cc1F.[Co+3].c1cc[cH-]c1 (racemic)
inhibition (Trichuris muris; worm motility, Worminator; 100 µM, adult females and males): > 50%

CCCCCCCCCCCCCCCC(=O)N[C@@H](CCC(=O)NCCOCCOCCC(=O)NCCOCCOCCC(=O)NCCCC[C@H](NC(=O)[C@H](CC(=O)O)NC(=O)[C@H](CC(C)C)NC(=O)[C@H](Cc1ccc(O)cc1)NC(=O)[C@H](CCCCN)NC(=O)[C@H](CO)NC(=O)[C@H](Cc1ccc(O)cc1)NC(=O)[C@H](CC(=O)O)NC(=O)[C@H](CO)NC(=O)[C@@H](NC(=O)[C@H](Cc1ccccc1)NC(=O)[C@@H](NC(=O)CNC(=O)[C@H](CCC(N)=O)NC(=O)[C@@H](CO)NC(=O)[C@@H](N)Cc1c[nH]cn1)[C@@H](C)O)[C@@H](C)O)C(=O)N[C@@H](CCCNC(=N)N)C(=O)N[C@@H](CCCNC(=N)N)C(=O)N[C@@H](C)C(=O)N[C@@H](CCC(N)=O)C(=O)N[C@@H](CC(=O)O)C(=O)N[C@@H](Cc1ccccc1)C(=O)N[C@H](C(=O)N[C@@H](CCC(N)=O)C(=O)N[C@@H](Cc1c[nH]c2ccccc12)C(=O)N[C@@H](CC(C)C)C(=O)N[C@@H](CC(C)C)C(=O)N[C@@H](CC(N)=O)C(=O)N[C@H](C(=O)NCC(=O)NCC(=O)N1CCC[C@H]1C(=O)N[C@@H](CO)C(=O)N[C@@H](CO)C(=O)NCC(=O)N[C@@H](C)C(=O)N1CCC[C@H]1C(=O)N1CCC[C@H]1C(=O)N1CCC[C@H]1C(=O)N[C@@H](CO)C(N)=O)[C@@H](C)O)C(C)C)C(=O)O
AUC(0-t) (rhesus monkey, plasma; subcutaneous, 5 µg/kg, single dose): 9.19 ng·h/mL

CC[C@H](C)[C@H](NC(=O)[C@H](Cc1ccccc1)NC(=O)[C@@H]1CCn2cc(nn2)-c2cccc(c2)-c2cn(nn2)CC[C@H](NC(=O)[C@H](CCC(N)=O)NC(=O)[C@H](CCCCN)NC(=O)[C@H](CO)NC(=O)[C@H](CC(C)C)NC(=O)[C@H](CC(=O)O)NC(=O)[C@H](CO)NC(=O)[C@@H](NC(=O)[C@H](Cc2ccccc2)NC(=O)[C@@H](NC(=O)CNC(=O)[C@H](CCC(=O)O)NC(=O)CNC(=O)[C@@H](N)Cc2c[nH]cn2)[C@@H](C)O)[C@@H](C)O)C(=O)N[C@@H](CCC(=O)O)C(=O)N[C@@H](CCC(=O)O)C(=O)N[C@@H](CCC(=O)O)C(=O)N[C@@H](C)C(=O)N[C@@H](C(C)C)C(=O)N[C@@H](CCCNC(=N)N)C(=O)N1)C(=O)N[C@@H](CCC(=O)O)C(=O)N[C@@H](Cc1c[nH]c2ccccc12)C(=O)N[C@@H](CC(C)C)C(=O)N[C@@H](CCCCN)C(=O)N[C@@H](CC(N)=O)C(=O)NCC(=O)NCC(=O)N1CCC[C@H]1C(=O)N[C@@H](CO)C(=O)N[C@@H](CO)C(=O)NCC(=O)N[C@@H](C)C(=O)N1CCC[C@H]1C(=O)N1CCC[C@H]1C(=O)N1CCC[C@H]1C(=O)N[C@@H](CO)C(N)=O
half-life (RP-HPLC; trypsin digest; 75 µM, pH 7.4, room temperature, added: trypsin 500 ng/µL): 3.2 h

TCAGATATTTGCGTCTCCGAGGAAAGAT (dsDNA)
binding (aflR 15-79 (Aspergillus flavus, UniProt P41765); EMSA; double-stranded DNA, one strand shown): no binding

CC(=O)NCCN(CC(=O)NCCN(CC(=O)NCCN(CC(=O)NCCC(N)=O)C(=O)C[C@@H](N)CCCNC(=N)N)C(=O)C[C@@H](N)Cc1ccccc1)C(=O)C[C@@H](N)Cc1ccccc1
binding enthalpy ΔH° (HIV-1 TAR RNA; concentration not given, 25 °C): -7 ± 0.263 kcal/mol

C[C@H](Nc1ncnc(N)c1C#N)c1c(-c2ccccc2)[nH]c2c(Cl)cccc2c1=O
half-life (CB17 SCID mice, xenograft, plasma; oral, 200 mg/kg once daily, day 1): 4.3 ± 0.1 h

NS(=O)(=O)c1ccc(NC(=O)c2ccccc2SSc2ccccc2C(=O)Nc2ccc(S(N)(=O)=O)cc2)cc1
Hill coefficient (Gag-Pol polyprotein, integrase residues 1-213 (gag-pol, Human immunodeficiency virus type 1 group M subtype B, UniProt P04585); DNA binding, fluorescence anisotropy; integrase ΔC; compound:IN ratio 3:1, added: 10 mM Mg2+, U5 DNA): 1.43

GGAUCCAUUCGAUUAGUGAACGGAUCC (structured RNA)
Kd (HNRNPA1 1-196 C43S/C175S (Homo sapiens, UniProt P09651); ITC; folded RNA): 27.8 ± 0.5 nM
